Measurements pooled from the literature.
Compare with care: the assays were run in different laboratories. Several values in a cell are separate wells, animals, samples, runs or records. ± gives the spread as reported.

`C[C@@H]1C[C@@H]([C@H](O)CC2CC(=O)NC(=O)C2)C(=O)[C@@H](C)C1`: ATP level “decreased” (bovine liver slices; 5 mg/mL, 6 h).
Under “dendritic spine density”, `Cc1ccc2cc(N3CCC4(O)C(=O)c5cc(C)c(C)cc5N=C34)ccc2n1` (stereo not drawn) is recorded as “no effect” (mouse, M1, PrL, S1BF, CA1, BLA; intraperitoneal, 20 mg/kg).
`CC[C@H](C)[C@@H]1NC(=O)[C@@H]2CSSC[C@H](NC(=O)[C@H](CCCNC(=N)N)NC(=O)[C@@H]3CSSC[C@H](NC1=O)C(=O)N[C@@H]([C@@H](C)O)C(=O)N[C@@H](CCCNC(=N)N)C(=O)NCC(=O)N[C@@H](Cc1ccccc1)C(=O)N3)C(=O)N[C@@H](CC(C)C)C(=O)N[C@H]1CSSC[C@H](NC(=O)[C@H](C(C)C)NC(=O)CNC(=O)[C@H](CCCNC(=N)N)NC(=O)[C@H](CCCNC(=N)N)NC1=O)C(=O)N[C@@H](CCCNC(=N)N)C(=O)N2`: “lung thrombosis score” 1 to 2 (cynomolgus monkey, female, lung; 10 mg/kg, histopathology, multifocal; direction not given).
The drug concentration of `COc1ncccc1-c1cnn2ccc(N3CCN(C(=O)OC(C)C)CC3)nc12` is reported as 28 µM (mouse, SNL model, brain; oral, 30 mg/kg, 120 min).
`S=c1oc(-c2ccccc2)nn1CN1CCN(Cc2ccccc2)CC1` has a serum AST of 120 ± 13.4 U/L (Wistar rat female; oral, 300 mg/kg, acute toxicity OECD 423).
With `Cc1ccc(F)c2cc(C(=O)N[C@@H]3CCC[C@H](N4CC[C@H](N(C)S(C)(=O)=O)C4)C3)[nH]c12` the AUC(0-inf) was 19900 ng·h/mL (CD1 mouse; oral, 100 mg/kg).
`C[C@]12C=CC(=O)C=C1C(CSC[C@H](N)C(=O)O)C[C@@H]1[C@@H]2CC[C@]2(C)C(=O)CC[C@@H]12` (stereo partly drawn): “share of modified total exemestane metabolites” 22% (postmenopausal women, serum; UGT2B17 and GSTA1 genotypes).
`OC[C@H]1OC(O)[C@H]([18F])[C@@H](O)[C@@H]1O` (stereo partly drawn) gave an SUV of 5.2 (PET; Sprague-Dawley rat, brain; intravenous, 2 h).
`COc1ccc2nc3cc(Cl)ccc3c(Nc3cc(CN4CCCC4)c(O)c(CN4CCCC4)c3)c2n1` — result for “red cell distribution width (SD)”: 24.9 fL (mouse, blood; intraperitoneal, 14 mg/kg).
Under “change in Calm-excited score”, `O=C(Nc1ccccc1)C1CCN(C(=O)Oc2cccnc2)CC1` is recorded as -15 (Bond-Lader VAS; healthy women; 60 mg; baseline: pre-dose baseline, direction not given).
Under “patients with GGT increased”, `CC(=O)c1c(C)c2cnc(Nc3ccc(C4CCN(CCS(C)(=O)=O)CC4)cn3)nc2n(C2CCCC2)c1=O` is recorded as 2.5% (HR+/HER2- advanced breast cancer patients; oral, dose not given, grade 3/4,, total).
`CCCCCCCCCCCCOS(=O)(=O)O.O=C(NCCCNc1nc(Nc2cccc(NC(=O)N3CCCC3)c2)ncc1I)c1cccs1` gave a logP of 2.93 ± 1.16 (shake flask; octanol/water).
`[O-][S+]1CCc2nc(N3CCC(c4ncc(Cl)cn4)CC3)nc(NC3(CO)CCC3)c21` (stereo not drawn) — result for “adverse event incidence”: 0% (measured: Dizziness; healthy male humans; 6 mg twice daily).
`C=CC(=O)N1CC[C@H](n2nc(C#Cc3cc(OC)cc(OC)c3)c3c(N)ncnc32)C1` — result for “AST increased, any grade”: 18.6% (human patients, all; oral, dose not given, QD regimen, adverse drug reaction).
`CCCCCCCCCCCCCCCC(=O)N[C@@H](CCC(=O)NCCCC[C@H](NC(=O)[C@H](CC(=O)O)NC(=O)[C@H](CO)NC(=O)[C@@H](NC(=O)[C@H](Cc1ccccc1)NC(=O)[C@@H](NC(=O)CNC(=O)[C@H](CCC(N)=O)NC(=O)[C@H](CO)NC(=O)[C@@H](N)Cc1c[nH]cn1)[C@@H](C)O)[C@@H](C)O)C(=O)N[C@@H](CO)C(=O)N[C@@H](CCC(=O)O)C(=O)N[C@@H](Cc1ccc(O)cc1)C(=O)N[C@@H](CC(C)C)C(=O)N[C@@H](CC(=O)O)C(=O)N[C@@H](CO)C(=O)N[C@@H](CCC(=O)O)C(=O)N[C@@H](CCCNC(=N)N)C(=O)N[C@@H](C)C(=O)N[C@@H](CCCNC(=N)N)C(=O)N[C@@H](CC(=O)O)C(=O)N[C@@H](Cc1ccccc1)C(=O)N[C@H](C(=O)N[C@@H](C)C(=O)N[C@@H](Cc1c[nH]c2ccccc12)C(=O)N[C@@H](CC(C)C)C(=O)N[C@@H](CCC(=O)O)C(=O)N[C@@H](C)C(=O)NCC(=O)NCC(=O)O)C(C)C)C(=O)O`: “treatment-related adverse events” 33.3% (measured: Headache; humans CrCl below 20 mL/min; subcutaneous, 100 µg single dose).
Under “adverse events, moderate”, `C[C@@H](NC(=O)N1C(=O)[C@H](Cc2ccnc(N)c2)[C@H]1C(=O)O)C1CCCCC1` is recorded as 2.5% (healthy Chinese adult volunteers; continuous intravenous infusion, dose not given, 5.0 days, CTCAE 5.0, all doses).
The plateletcrit of `Nc1ncnc2c1ncn2[C@@H]1O[C@@H]2COP(=O)([S-])O[C@@H]3[C@H](O)[C@@H](COP([O-])(=S)O[C@H]2[C@H]1O)O[C@H]3n1cnc2c(N)ncnc21.[Na+].[Na+]` (stereo partly drawn) is reported as 0.06 ± 0.05% (non-tumor-bearing mice, blood; intravenous, 1 mg/kg, toxicity study).
`COc1ccc(-c2[nH]c3c(OC)c(OC)ccc3c2C(=O)c2cc(OC)c(OC)c(OC)c2)cc1OP(=O)([O-])[O-].[Na+].[Na+]` — result for tolerability: “not toxic” (outcome: not toxic; mouse, BALB/c, RENCA-luc tumour; intraperitoneal, 50, 100 mg/kg).
Under “patients with adverse event”, `C[C@@H]1OC(=O)NN=C1c1ccc(-c2ccc(F)cc2)c(C(F)(F)F)c1` is recorded as 0% (phase I trial, measured: Diarrhoea all grades; human patients; 20 mg loading then 1 mg daily).
`NC(=O)[C@H]1CCN(c2ncnc(N)c2F)C[C@@H]1N1CCC[C@@H](Nc2cc(Cl)cc(C(F)(F)F)c2)C1=O` — result for “grade ≥3 thrombocytopenia”: 0% (B-cell malignancy patients; oral, 82 mg twice daily, dose).
`NCCCC[C@@H]1NC(=O)[C@@H](Cc2c[nH]c3ccccc23)NC(=O)[C@H](c2ccccc2)NC(=O)[C@@H]2C[C@@H](OC(=O)NCCN)CN2C(=O)[C@H](Cc2ccccc2)NC(=O)[C@H](Cc2ccc(OCc3ccccc3)cc2)NC1=O`: “placebo-corrected QTcF change” 5.1 ms (healthy volunteers, female; 1950 µg twice daily, 0.0 h, post hoc).
Under “blood chemistry level”, `O=S(=O)(Nc1ccccc1)c1ccc(NC(=S)Nc2ccccc2)cc1` is recorded as 10 mg/dL (measured: Ca; male mouse, blood; oral, 80 mg/kg daily, 14 days).
`Oc1ccc(Cl)c(-c2ccc(Cl)cc2Cl)c1Cl` has an enantiomeric fraction of 0.51 (enantioselective gas chromatography; racemized sample; column temperature 160 °C).
With `C[C@H](NC(=O)c1c(C(F)F)nn(C)c1Oc1cccc(C(F)(F)F)c1)c1ccc(C(=O)O)cc1` the half-life was 6.1 h (human, plasma; 500 mg, cycle 1 day 8, mean).
`C=CC(=O)Nc1cc(Nc2nccc(Nc3cc(Cl)c(F)cc3C(C)(C)O)n2)c(OC)cc1N1CC[C@@H](N(C)C)C1` — result for “patients with adverse event Anaemia”: 35.3% (human; oral, dose not given, phase I clinical).
Under “grade ≥3 creatinine increase incidence”, `Cn1cncc1-c1c(F)cncc1NC(=O)c1c(N)nn2cc(F)cnc12` is recorded as 0% (human patients; oral, 80 mg once daily).
Under “patients with grade ≥3 TEAE”, `O=C1Nc2cc3[nH]nc(-c4ccncc4)c3cc2CN1Cc1ccccc1` is recorded as 7% (measured: respiratory tract infection; patients with advanced solid tumours; intravenous, dose not given).
The plateletcrit of `CC(C)C[C@H](NC(=O)[C@H](CCCCN)NC(=O)OCC1c2ccccc2-c2ccccc21)C(=O)N[C@H](C(=O)N[C@@H](Cc1ccccc1)C(=O)N[C@@H](Cc1ccccc1)C(=O)N[C@@H](CCCCN)C(=O)NCC(=O)N[C@@H](Cc1ccccc1)C(=O)N[C@@H](C)C(=O)N[C@@H](Cc1c[nH]c2ccccc12)C(=O)N[C@@H](CC(N)=O)C(=O)N[C@H](C(=O)N[C@H]1CSSC[C@@H](C(=O)N[C@@H](Cc2c[nH]cn2)C(=O)N[C@@H](CCCNC(=N)N)C(=O)N[C@@H](CCCNC(=N)N)C(=O)N[C@@H](C)C(=O)N[C@@H](CC(N)=O)C(N)=O)NC(=O)[C@H](C(C)C)NC(=O)[C@H](CCCNC(=N)N)NC(=O)[C@H](C(C)C)NC(=O)CNC(=O)[C@H](CC(N)=O)NC(=O)[C@H](CCCNC(=N)N)NC(=O)[C@H](Cc2ccc(O)cc2)NC(=O)[C@H](C(C)C)NC1=O)C(C)C)C(C)C` is reported as 0.03% (ICR mice, blood; intraperitoneal, 5 mg/kg, day 5).
For `CC(C)Nc1ccnc(Nc2cccc(-c3cccnc3)c2)n1`, the blood chemistry was 147 U/L (measured: alkaline phosphatase; mouse, blood; intraperitoneal, 10 mg/kg).
For `COc1cc2c(Oc3ccc4[nH]c(C)cc4c3F)ccnc2cc1OCC1(N)CC1`, “incidence of adverse event” read 11.8% (measured: grade 1 or 2 weight loss; paediatric high-risk refractory sarcoma; whole group).
`CO[C@H]1C[C@@H]2CC[C@@H](C)[C@@](O)(O2)C(=O)C(=O)N2CCCC[C@H]2C(=O)O[C@H]([C@H](C)C[C@@H]2CC[C@@H](OC(=O)NCCOCCOCCOCCOCCOCCOCCOCCOCCC(=O)N3CCc4cc(Cn5nc(-c6ccc7oc(N)nc7c6)c6c(N)ncnc65)ccc4C3)[C@H](OC)C2)C[C@@H](O)[C@H](C)/C=C(\C)[C@@H](O)[C@@H](OC)C(=O)[C@H](C)C[C@H](C)/C=C/C=C/C=C/1C` has a TRAE incidence of 0% (phase 1 dose escalation, measured: diarrhoea; advanced solid tumour patients; intravenous, 8 mg weekly, grade ≥3).
`OCc1cn(Cc2cccc(Cl)c2)c2ccccc12`: “liver toxicity severity score” 4 (male F344 rat, liver; oral, 150 mg/kg/day, 2 days, scale unremarkable to marked; direction not given).
For `C[C@]1(O)C[C@@](N)(c2ccc(-c3nc4n(c3-c3ccccc3)COc3ccncc3-4)cc2)C1`, “patients with Pruritus TEAE” read 11.1% (human, advanced or metastatic solid tumours; once daily, dose escalation total, any grade).
`CN1CC[C@@H](c2c(O)cc(O)c3c(=O)cc(-c4ccc(C(F)(F)F)cc4Cl)oc23)[C@@H]1CO` — result for “patients with adverse event”: 0% (measured: Epistaxis; B-cell malignancies; oral, 150 mg, intermittent dosing).
Under “treatment-related adverse event incidence”, `COc1ccc(-c2c(-c3ccc(C#N)c(F)c3)nc(N3CCC(N)CC3)n(C)c2=O)cc1F` is recorded as 6% (measured: Vomiting; human patients; oral, dose not given, any grade, dose escalation, NG).
With `COc1ccnc(C(=O)N[C@H]2COC(=O)[C@H](Cc3ccccc3)[C@@H](OC(=O)C(C)C)[C@H](C)OC2=O)c1OCOC(=O)C(C)C` the DT50 was 8.55 days (field soil, loam; normalised, UK).
`C[C@]1(CO)Cc2ncn(-c3ccc(C#N)c(Cl)c3)c2C(=O)O1` — result for “subjects with severe TEAEs”: 0% (human; 5 mg single dose).
`COc1cccc(Oc2ccccc2NC(=O)CNC(=O)c2cccc3ccccc23)c1` has a blood glucose of 192 mg/dL and 221 mg/dL and 194 mg/dL (esterase-deficient SCID mice, male; oral, 100 mg/kg/day, 14 days, toxicity study).
`Clc1ccc(Cl)c(-c2cc(Cl)ccc2Cl)c1` gave a concentration of 2020 ng/g (Sprague Dawley rat female, adipose tissue; intraperitoneal, 100 mg/kg, 3 weeks).

For quick reference, copied from above:
`[O-][S+]1CCc2nc(N3CCC(c4ncc(Cl)cn4)CC3)nc(NC3(CO)CCC3)c21` (stereo not drawn) — result for “adverse event incidence”: 0% (measured: Dizziness; healthy male humans; 6 mg twice daily).
With `C[C@H](NC(=O)c1c(C(F)F)nn(C)c1Oc1cccc(C(F)(F)F)c1)c1ccc(C(=O)O)cc1` the half-life was 6.1 h (human, plasma; 500 mg, cycle 1 day 8, mean).
